Measurements gathered from unrelated publications.
Each numbered part is a random draw from the data of one study; scales do not carry over between parts. Changes are numbered by the printed parent chain.

Block 1 — target: CCNB1, cyclin fold, Cln2 fusion (human); technique: yeast growth competition, sequencing; sample: yeast; notes: weak parent motif; relative to: not given; reading: higher = stronger binding; quantity: normalised enrichment score
Starting sequence: GMNC docking peptide (human); KNAKRNLSSEFAN
KNAKRCLSSEFAN [N6C]: -0.0607
KNAKINLSSEFAN [R5I]: 0.48
KNAKFNLSSEFAN [R5F]: 0.0926
KGAKRNLSSEFAN [N2G]: 0.147
KPAKRNLSSEFAN [N2P]: 0.611
KDAKRNLSSEFAN [N2D]: 0.0906
KNAKRNLSSEFLN [A12L]: 0.0783
KNAKRNLCSEFAN [S8C]: -0.215
KNAKRNLLSEFAN [S8L]: 0.551
KNAKRNLSTEFAN [S9T]: 0.225
KNAKRNLSIEFAN [S9I]: -0.166
KNTKRNLSSEFAN [A3T]: 0.363
KNAKRNLHSEFAN [S8H]: 0.297
KNAKPNLSSEFAN [R5P]: -0.32
KNAKRNLSSESAN [F11S]: 0.378
KNAKYNLSSEFAN [R5Y]: 0.124
KNAKRNLSSEFQN [A12Q]: 0.14
KNAKRNLSSEFKN [A12K]: 0.00658
KNDKRNLSSEFAN [A3D]: 0.109
KNQKRNLSSEFAN [A3Q]: -0.16

Block 2 — target: CEP164, C-terminal peptide (human); technique: DHFR complementation, deep sequencing; sample: yeast; relative to: wild type; reading: higher = weaker binding; quantity: binding free energy change
Notes: single substitutions, model-inferred values
Starting sequence: PDZK1, PDZ domain 2 (human); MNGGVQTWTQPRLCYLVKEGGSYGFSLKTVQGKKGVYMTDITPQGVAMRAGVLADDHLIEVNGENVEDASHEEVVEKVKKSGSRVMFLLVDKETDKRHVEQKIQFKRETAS; partner HNRVKVYRF
K96D: 0.0415 kcal/mol
M48Y: -0.22 kcal/mol
E76N: 0.159 kcal/mol
Y23M: 0.357 kcal/mol
T109K: -0.288 kcal/mol
G20I: 0.597 kcal/mol
A110S: -0.11 kcal/mol
R12S: 0.23 kcal/mol
A69Q: -0.117 kcal/mol
E72I: 0.515 kcal/mol
G21W: 0.28 kcal/mol
G4W: 0.113 kcal/mol
L16A: 1.51 kcal/mol
V90K: -0.118 kcal/mol
I41H: 1.5 kcal/mol
R49F: 0.535 kcal/mol
R84H: 0.0988 kcal/mol
V17T: -0.0533 kcal/mol
Q101G: -0.174 kcal/mol
S70L: 0.0136 kcal/mol
T94S: -0.123 kcal/mol
H57P: 0.389 kcal/mol
R84C: 0.0907 kcal/mol
E93Y: -0.16 kcal/mol
H98V: -0.0965 kcal/mol

Block 3 — technique: RNA Bind-n-Seq; form: RNA; sample: in vitro; tested at: 1 µM; notes: whole 134-nt RNA, ends assumed; with: 150 mM KCl; relative to: input library; reading: higher = stronger binding; quantity: log2 enrichment
Target: Ras GTPase-activating protein-binding protein 1, RRM domain (G3BP1, Homo sapiens, UniProt Q13283)
Chain of UniProt Q13283 (whole entry, looked up): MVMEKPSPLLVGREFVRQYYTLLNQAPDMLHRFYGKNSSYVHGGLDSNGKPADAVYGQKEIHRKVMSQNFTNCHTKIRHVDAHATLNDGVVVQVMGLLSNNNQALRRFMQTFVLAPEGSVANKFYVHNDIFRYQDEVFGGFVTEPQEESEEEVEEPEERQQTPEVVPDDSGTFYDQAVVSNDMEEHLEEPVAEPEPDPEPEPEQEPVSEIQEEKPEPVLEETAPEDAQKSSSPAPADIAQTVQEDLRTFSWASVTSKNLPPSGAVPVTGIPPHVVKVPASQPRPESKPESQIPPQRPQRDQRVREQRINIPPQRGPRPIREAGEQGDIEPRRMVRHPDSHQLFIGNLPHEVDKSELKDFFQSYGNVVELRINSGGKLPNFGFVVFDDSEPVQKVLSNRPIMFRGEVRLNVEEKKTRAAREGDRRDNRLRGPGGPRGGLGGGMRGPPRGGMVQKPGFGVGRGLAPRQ
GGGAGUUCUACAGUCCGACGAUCCCUGUGCUACACAUCGUAUGUACCGAAUCGGGUUUUUUUGGGUUUUUGGGUUUUUUUGGGAAAGUAUUAUGUUACGCCGUUCGGAUCUGCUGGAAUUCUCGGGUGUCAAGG: -0.206
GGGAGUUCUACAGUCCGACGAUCCUCAAGUCCUGUGCUACACAUCGUAUGUACCGAAUCGGCCGGGCCGGCCGGGGAAAGUAUUAUGUUACGCCGUUCGGAUCUGCACUUCCAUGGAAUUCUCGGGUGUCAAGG: -0.263
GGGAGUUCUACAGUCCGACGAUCUGGCCCUGGUGGCAUGCGGGAAGGAAGAGGUGGCCUCAUGGAUCGUGGUGGUCCCGGUGGAAUGUUCAGAGGUGGCCGUGGUGGAGACAGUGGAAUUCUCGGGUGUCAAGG: 0.952
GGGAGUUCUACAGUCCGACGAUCUUUAGACAGAAACAAGAAGCAACAGAGUCCCUUAAGUGCCAAGAGGAACUUCGAGAGCGCCUUCAUGAGGAGUCCAGGGCCAGAGAACAGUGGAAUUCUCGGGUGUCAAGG: -0.125
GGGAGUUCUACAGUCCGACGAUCUGGGAGGUGGAUUUUGUUUAUUUUUUUAGCUCAUUUCCAGGCGUGGGAAUUUUUUUUUAAUAUGUGUCAUGAAUAAAGUUGUUUUUGAAAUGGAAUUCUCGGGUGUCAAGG: 1.57
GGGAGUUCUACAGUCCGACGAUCUCCUCAAGUCCUGUGCUACACAUCGUAUGUACCGAAUCGGCGGCGGGCGGGAAAGUAUUAUGUUACGCCGUUCGGAUCUGCACUUCCAGCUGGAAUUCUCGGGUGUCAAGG: -0.202
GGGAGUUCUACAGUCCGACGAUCUUUCUAGCUGGACCAGUCCGGUACGCUCCGGGCCUCACCGAGGAAGUCCCACCCUGCAGGGGAACCGACUCUGGCCGGCCCUAACCCCUCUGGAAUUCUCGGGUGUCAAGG: -0.558
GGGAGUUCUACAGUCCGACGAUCCUCAAGUCCUGUGCUACACAUCGUAUGUACCGAAUCGGGGUGGGUGGGUGGGGAAAGUAUUAUGUUACGCCGUUCGGAUCUGCACUUCCAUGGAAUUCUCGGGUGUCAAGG: 1.27
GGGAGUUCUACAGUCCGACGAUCCAAGUCCUGUGCUACACAUCGUAUGUACCGAAUCGGGCCCGGGCCCGGGGCCCGGAAAGUAUUAUGUUACGCCGUUCGGAUCUGCACUUCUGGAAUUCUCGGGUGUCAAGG: -0.842
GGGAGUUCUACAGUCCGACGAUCAAGUCCUGUGCUACACAUCGUAUGUACCGAAUCGGCCCCGGCCCCGGGCCCCGGGGAAAGUAUUAUGUUACGCCGUUCGGAUCUGCACUUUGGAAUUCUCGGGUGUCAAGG: -1.05

Block 4 — technique: RNA Bind-n-Seq; form: RNA; sample: in vitro; tested at: not given; relative to: input RNA pool; reading: higher = stronger binding; quantity: bound/input enrichment
Target: RING finger protein unkempt homolog, zinc fingers 1-6, GST-SBP tag (UNK, Homo sapiens, UniProt Q9C0B0, residues 30-357)
Chain of UniProt Q9C0B0 (30-357, looked up): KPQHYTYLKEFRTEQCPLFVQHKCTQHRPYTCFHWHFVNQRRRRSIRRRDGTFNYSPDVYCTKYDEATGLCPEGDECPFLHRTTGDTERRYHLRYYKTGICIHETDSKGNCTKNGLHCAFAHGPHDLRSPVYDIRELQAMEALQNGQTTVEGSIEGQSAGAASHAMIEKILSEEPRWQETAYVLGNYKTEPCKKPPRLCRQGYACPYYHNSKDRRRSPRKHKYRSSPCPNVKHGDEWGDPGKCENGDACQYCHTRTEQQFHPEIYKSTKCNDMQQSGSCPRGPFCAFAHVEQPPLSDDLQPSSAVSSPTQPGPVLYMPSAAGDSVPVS
Notes: RNA with constant flanks, human-mouse chimeric sites, ends assumed
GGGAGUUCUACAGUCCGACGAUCUCCCAAAUCCAGCAGCUAGAAGGAGCCUUGAGACAAACACUCCACACACAGGGAAGGCGAUAACAUUGUAAAUUGGUUUACAUUUUUUCCCCCUGUGGAUUUUUCUAGAGGUCAUAGUGCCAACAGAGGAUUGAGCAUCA: 0.387 ratio
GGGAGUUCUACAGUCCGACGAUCAAUUUCCUGUCAUACUUUUUAGACAUUCACAUCAGACUUACAGAGCAUUGGGCCUCUUUCUAGGUUUGUGUUAUUUCUCAGCUAUGGAUAUGAUCAAAGAGUGAAAAUGCUUAACUAAUGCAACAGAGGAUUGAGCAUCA: 0.462 ratio
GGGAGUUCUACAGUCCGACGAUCUCGGAUGAGGUGCUGGGUCACUUUUCAUAUCCAGAUCCUUCACAGUGGACAGAUGAAGAACUGGGAAUCCCUCCUGAUGACGAGGACUGACACUGUAAACUCUCUGGACGAGUAGGAGCACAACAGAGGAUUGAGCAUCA: 0.827 ratio
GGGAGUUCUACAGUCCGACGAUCCGCUGGCCCAAGCUGAUGUAAAUGUUUGGCCUCCAUCUCUCAGGCACGUGUGCCUUCUCUUAGUCCCUGUUUUCGGGAUGUUAUGAAUCUCAGUACUGUGGUUUGAAAGCACCAGCUUUGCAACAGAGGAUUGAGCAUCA: 0.146 ratio
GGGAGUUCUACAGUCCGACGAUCCACAGAGCAGCACCUACCCCCUCCUCCUUUCCACACCUGCAAACUCUUUUGCCUGGGCUGCAUAGUUAGUGUAAUUACAUCUCAGCUUUGAGGGCUCCUGUGGCAAAUUCCCGGAUUAAACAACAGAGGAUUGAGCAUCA: 0.973 ratio
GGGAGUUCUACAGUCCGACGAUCGAGUCGAUUAUGGAAACAACAAUUCGUUAUCUUGCAGCCUCAGUGUUCACUUGCUUGGCGAUAGCAUUGGGGUUUUAUAUAGAUUCUAAGGAGAACUGACGAUGAUGCUGCCGCUGCUGCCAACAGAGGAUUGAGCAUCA: 0.342 ratio
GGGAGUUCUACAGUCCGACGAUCCAGACUGUGUCAUACUUUUUAGACAUUCACAUCAGACUUACAGAGCAUUGGGCCUCUUUCUAGGUUUGUGUUAUUUCUCAGCUAUGGAUAUGAUCAAAUGAGAACACUGCUUAACUAAUGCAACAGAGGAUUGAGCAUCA: 1.07 ratio
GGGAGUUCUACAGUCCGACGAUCAAAGGCAGCUGUGUUAUCUGUGUCAUUUCAUAAGUAACUCUGGGGGAGGGAAAUUCUGUUCUUUUGUUUAAUUUUCCCCCAAAUGAAGCCAAAGUGUGUGUUGAAGAACUGAGAAAAAAUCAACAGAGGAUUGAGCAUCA: 0.224 ratio
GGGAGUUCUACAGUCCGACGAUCAAAAUAGACUAUGGCGAGUACAUGGAUAAAAACAAUGUGAGGCGGCAAGCAACAACAAUCAUAGCUGAUAAUAUUAUAUUUCUGAGUGACCAGACAAAAGAAAAGGCAUAGAACGGAUGACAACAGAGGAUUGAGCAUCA: 8.01 ratio
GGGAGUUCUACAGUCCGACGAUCAGAGCCCAGGAUGUUGAUGCUACAAACCCAAAUUACGAAAUUAUGUGUAUGAUCAGAGACUUCAGAGGGAGCUUGGAUUACAGACCCUUAACAACAGCAGAUCCUAUUGAUGAACAUAGGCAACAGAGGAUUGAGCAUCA: 0.341 ratio
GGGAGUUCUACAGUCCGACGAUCCAGCGCCGAGGCCGCGGUUUCCCCCUGGGUGUGCUGAGCAGCAGCCAUGGGCAUCAAGUUUUUAGAAGUUAUCAAACCAUUCUGUGCAGUUCUACCAGAAAUUCAGAAACCGGAAAGGAACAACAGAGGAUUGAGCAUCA: 1.27 ratio

Further values, each from its own experiment
PhoQ, residues 284 288 289 292 302 303 GLASVI
fold induction (PhoP, residues 12 14 15 18 19 IQSYL (Escherichia coli, UniProt P23836); Sort-seq, item: YFP reporter; E. coli; PhoQ-PhoP variant library, with: 10 µM Mg2+; relative to: high Mg2+ state, higher = stronger signaling): 8.34

For quick reference, copied from above (block 3):
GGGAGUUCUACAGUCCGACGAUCUGGCCCUGGUGGCAUGCGGGAAGGAAGAGGUGGCCUCAUGGAUCGUGGUGGUCCCGGUGGAAUGUUCAGAGGUGGCCGUGGUGGAGACAGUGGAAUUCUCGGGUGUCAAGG: 0.952
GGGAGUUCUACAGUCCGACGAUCUUUAGACAGAAACAAGAAGCAACAGAGUCCCUUAAGUGCCAAGAGGAACUUCGAGAGCGCCUUCAUGAGGAGUCCAGGGCCAGAGAACAGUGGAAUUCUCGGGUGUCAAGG: -0.125
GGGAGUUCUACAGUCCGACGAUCUGGGAGGUGGAUUUUGUUUAUUUUUUUAGCUCAUUUCCAGGCGUGGGAAUUUUUUUUUAAUAUGUGUCAUGAAUAAAGUUGUUUUUGAAAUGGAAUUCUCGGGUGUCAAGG: 1.57
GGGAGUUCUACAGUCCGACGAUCUCCUCAAGUCCUGUGCUACACAUCGUAUGUACCGAAUCGGCGGCGGGCGGGAAAGUAUUAUGUUACGCCGUUCGGAUCUGCACUUCCAGCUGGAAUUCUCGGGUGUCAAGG: -0.202
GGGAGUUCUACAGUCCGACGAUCUUUCUAGCUGGACCAGUCCGGUACGCUCCGGGCCUCACCGAGGAAGUCCCACCCUGCAGGGGAACCGACUCUGGCCGGCCCUAACCCCUCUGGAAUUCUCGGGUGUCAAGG: -0.558
